Results gathered from unrelated publications.
Parts stem from different laboratories: compare values within a part only.

Sample 1
Target: Interferon regulatory factor 5, full length, phosphomimetic (IRF5, Homo sapiens, UniProt Q13568-2, residues 1-514, K96S/S451D/S453D/S456D/S462D)
Method: protein-binding microarray
Form: double-stranded DNA, one strand shown
Sample: in vitro
Concentration: 250 nM
Notes: 60-bp whole probe
With: salmon DNA 0.4 mg/ml
Reference: random background probes
Direction: higher = stronger binding
Quantity: log fluorescence
Sequence = GCCTAGCACTTAGGTTTCGGGTACCGGTTAGTGCTAGTCTTGATTCGCTTGACGCTGCTG; result = 8.8 z-score
Sequence = GCCTAGCACTACGATATCAGTATCGAGACGTGCTAGGTCTTGATTCGCTTGACGCTGCTG; result = 3.29 z-score
Sequence = GCCTAGCACTTAGAACTGGGGACTCGATTAGTGCTAGTCTTGATTCGCTTGACGCTGCTG; result = -0.101 z-score

Sample 2
Target: Ras GTPase-activating protein-binding protein 1, C-terminal RGG region (G3BP1, Homo sapiens, UniProt Q13283)
UniProt Q13283, sequence (whole entry, looked up): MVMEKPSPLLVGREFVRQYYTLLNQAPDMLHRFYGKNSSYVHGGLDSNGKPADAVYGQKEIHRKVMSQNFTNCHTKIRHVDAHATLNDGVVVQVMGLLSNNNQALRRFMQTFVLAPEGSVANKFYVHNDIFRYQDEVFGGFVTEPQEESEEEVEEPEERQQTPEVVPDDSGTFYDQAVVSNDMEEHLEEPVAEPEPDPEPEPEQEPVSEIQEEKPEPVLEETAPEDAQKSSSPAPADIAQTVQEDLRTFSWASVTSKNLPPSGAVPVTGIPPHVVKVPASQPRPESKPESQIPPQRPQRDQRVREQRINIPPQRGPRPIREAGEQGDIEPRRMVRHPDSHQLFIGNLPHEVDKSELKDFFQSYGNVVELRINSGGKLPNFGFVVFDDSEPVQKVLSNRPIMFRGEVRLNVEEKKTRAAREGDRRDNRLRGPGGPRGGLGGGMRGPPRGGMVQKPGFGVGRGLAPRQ
Method: RNA Bind-n-Seq
Form: RNA
Sample: in vitro
Concentration: 1 µM
Notes: whole 134-nt RNA, ends assumed
With: 150 mM KCl
Reference: input library
Direction: higher = stronger binding
Quantity: log2 enrichment
Sequence = GGGAGUUCUACAGUCCGACGAUCUGCUAGGCAAUGGAUCACUUGGAGUCCUUUAUUGCUGAAUGUGAUCGGAGAACUGAGCUCGCCAAGAAGCGGCUGGCAGAAACACAGGAGUGGAAUUCUCGGGUGUCAAGG; result = 0.33
Sequence = GGGAGUUCUACAGUCCGACGAUCGUCCUGUGCUACACAUCGUAUGUACCGAAUCGGGAAAAAAAGGGAAAGGGAAAAAGGGAAAGUAUUAUGUUACGCCGUUCGGAUCUGCACUGGAAUUCUCGGGUGUCAAGG; result = -0.56
Sequence = GGGAGUUCUACAGUCCGACGAUCUCAAGUCCUGUGCUACACAUCGUAUGUACCGAAUCGGGGAAGGGAAGGGGAAGGGAAAGUAUUAUGUUACGCCGUUCGGAUCUGCACUUCUGGAAUUCUCGGGUGUCAAGG; result = 2.05

Further values, each from its own experiment
Substance = ACCTTGTA; target = Histone acetyltransferase KAT6A, winged helix 2, GST fusion (KAT6A, Homo sapiens, UniProt Q92794, residues 85-181); test = protein binding microarray; test system = double-stranded DNA, one strand shown, in vitro; conditions = not given, 8-mer, flanks averaged, mean of 2 arrays, mostly near background; how to read = reference: not given, higher = stronger binding; quantity = E-score; result = -0.081
Substance = PhoQ, residues 284 288 289 292 302 303 NLGVHL; target = PhoP, residues 12 14 15 18 19 TTLRV (Escherichia coli, UniProt P23836); test = Sort-seq, measured: YFP reporter; test system = E. coli; conditions = PhoQ-PhoP variant library, with: 10 µM Mg2+; how to read = reference: high Mg2+ state, higher = stronger signaling; quantity = fold induction; result = 12.9

Excerpt of the above (sample 2):
Sequence = GGGAGUUCUACAGUCCGACGAUCUGCUAGGCAAUGGAUCACUUGGAGUCCUUUAUUGCUGAAUGUGAUCGGAGAACUGAGCUCGCCAAGAAGCGGCUGGCAGAAACACAGGAGUGGAAUUCUCGGGUGUCAAGG; result = 0.33
